Experimental data from different studies.
“And” joins repeats or separate records; there may be more than shown. Numbers after ± are the reported error.
USP16 ZnF-UBD domain: Ubiquitin carboxyl-terminal hydrolase 16, ZnF-UBD domain (USP16, Homo sapiens, UniProt Q9Y5T5)
UniProt Q9Y5T5, sequence (whole entry, looked up): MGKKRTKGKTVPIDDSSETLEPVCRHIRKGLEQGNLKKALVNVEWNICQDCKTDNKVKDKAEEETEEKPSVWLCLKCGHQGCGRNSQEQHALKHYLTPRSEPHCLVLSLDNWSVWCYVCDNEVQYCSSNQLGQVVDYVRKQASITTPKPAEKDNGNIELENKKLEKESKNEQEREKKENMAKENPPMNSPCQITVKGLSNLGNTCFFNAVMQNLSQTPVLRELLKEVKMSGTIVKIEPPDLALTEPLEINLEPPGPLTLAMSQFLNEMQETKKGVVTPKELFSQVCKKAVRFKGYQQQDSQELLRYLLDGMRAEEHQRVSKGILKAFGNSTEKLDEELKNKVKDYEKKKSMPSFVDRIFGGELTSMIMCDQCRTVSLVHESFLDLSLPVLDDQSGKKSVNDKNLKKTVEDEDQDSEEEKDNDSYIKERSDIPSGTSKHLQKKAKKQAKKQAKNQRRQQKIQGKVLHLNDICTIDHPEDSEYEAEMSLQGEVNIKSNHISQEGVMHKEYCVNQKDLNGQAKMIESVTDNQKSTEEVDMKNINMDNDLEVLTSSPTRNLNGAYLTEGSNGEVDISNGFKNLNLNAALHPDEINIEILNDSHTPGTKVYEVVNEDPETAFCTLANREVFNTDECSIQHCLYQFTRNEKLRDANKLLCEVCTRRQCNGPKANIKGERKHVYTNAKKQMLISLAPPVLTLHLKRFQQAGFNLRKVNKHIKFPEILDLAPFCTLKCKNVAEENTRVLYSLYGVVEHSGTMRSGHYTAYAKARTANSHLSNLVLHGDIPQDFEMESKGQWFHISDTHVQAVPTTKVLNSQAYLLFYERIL
UniProt Q6NT16, sequence (whole entry, unmodified, looked up): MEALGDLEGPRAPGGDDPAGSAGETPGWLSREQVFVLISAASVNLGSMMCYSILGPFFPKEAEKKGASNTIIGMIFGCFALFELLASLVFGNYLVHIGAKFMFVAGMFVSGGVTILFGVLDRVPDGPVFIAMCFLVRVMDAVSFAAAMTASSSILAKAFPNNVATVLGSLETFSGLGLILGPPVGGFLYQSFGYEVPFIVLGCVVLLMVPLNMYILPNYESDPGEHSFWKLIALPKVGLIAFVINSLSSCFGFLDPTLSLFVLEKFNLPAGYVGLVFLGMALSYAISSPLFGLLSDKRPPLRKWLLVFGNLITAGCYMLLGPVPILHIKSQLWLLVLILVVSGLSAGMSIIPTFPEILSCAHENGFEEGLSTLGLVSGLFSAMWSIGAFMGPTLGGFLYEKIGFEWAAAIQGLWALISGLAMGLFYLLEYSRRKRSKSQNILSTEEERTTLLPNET

Structure (SMILES)	target or system	test	system	setting	how to read	measurement	value
CCn1cc(-c2cc(Cn3ccnc3)cc3c2CCN([C@H](c2cc(OC)ccn2)C2CC2)C3=O)c(C(F)(F)F)n1	RERFGC1B	cell growth		120 h		EC50	2.25 µM
CSc1cc(Oc2ccnc3[nH]c(=O)cnc23)ccc1NC(=O)Nc1cc(C(C)(C)C)nn1-c1ccccc1	patient-derived cell line clone A	RPPA, refers to: phosphorylated Rb	human	1 µM, 4 h	baseline: DMSO	phospho ratio	0.7
C[C@H](CCC(=O)O)[C@H]1CC[C@H]2[C@@H]3[C@H](O)C[C@@H]4C[C@H](O)CC[C@]4(C)[C@H]3C[C@H](O)[C@]12C		binding, MIDAS equilibrium dialysis LC-MS	A2AR-BRIL thermostabilized	concentration not given	baseline: no-protein control	log2 fold change	10.8
NC(=O)c1cnc2[nH]ccc2c1N[C@@H]1[C@@H]2CC3C[C@H]1C[C@@](O)(C3)C2		flow cytometry	Japanese healthy men, blood	oral, 100 mg twice daily, 72 h after day 7 dose	baseline: baseline	CD4+ effector memory change	0.18%
CC(C)C[C@H](NC(=O)C[C@H](O)[C@H](CC(C)C)NC(=O)[C@H](Cc1c[nH]cn1)NC(=O)CNC(=O)[C@@H](NC(=O)[C@H](C)NC(=O)[C@H](Cc1c[nH]c2ccccc12)NC(=O)[C@H](CCC(N)=O)NC(=O)[C@@H](Cc1ccccc1)NC(=O)COCCOCCNC(=O)CCC(C(=O)O)N1CCN(CC(=O)O)CCN(CC(=O)O)CCN(CC(=O)O)CC1)C(C)C)C(N)=O (stereo partly shown) [lutetium-177 labelled]			BALB/c nu/nu mice, female, liver	50 pmol, 1 h, together with: PBS co-injection		tissue uptake	1.1 ± 0.3 %ID/g
Cc1ncc(CO)c(C(=O)O)c1O		binding, MIDAS equilibrium dialysis LC-MS	A2AR-BRIL thermostabilized	concentration not given	baseline: no-protein control	log2 fold change	-0.0142
O=C(O)CNc1ncnc2ccccc12	USP16 ZnF-UBD domain					Kd	603 µM
CCS(=O)(=O)c1nc(C2CC2)cc(C(F)(F)F)n1	transportin-1/2	FUS nuclear import, high content imaging	HeLa Kyoto reporter	15.8 µM, 2 h		cells with nuclear reporter	94.6% and 97.7%
O=C(O)CNC(=O)Cc1ccccc1			ventricular cardiomyocytes, C57BL/6 mouse	dose not given, 0.424 s		sarcomere length	1.72 µm
Cn1cnc(C[C@H](N)C(=O)O)c1		binding, MIDAS equilibrium dialysis LC-MS	A2AR-BRIL thermostabilized	concentration not given	baseline: no-protein control	log2 fold change	-0.103
O=C(/C=C/C=C/C=C/C1CCCCC1)NC1=C[C@@](O)(/C=C/C=C/C=C/C(=O)NC2=C(O)CCC2=O)[C@@H]2O[C@@H]2C1=O	Panc 04.03	CellTiter-Glo		78 h		GI50	24.4 µM
NCCOP(=O)(O)OP(=O)(O)OC[C@H]1O[C@@H](n2ccc(N)nc2=O)[C@H](O)[C@@H]1O		binding, MIDAS equilibrium dialysis LC-MS	A2AR-BRIL thermostabilized	concentration not given	baseline: no-protein control	log2 fold change	-0.245
COc1cccc(CNC(=O)C#Cc2cn(Cc3ccc(C(=O)O)cc3)c(=O)[nH]c2=O)c1	MMP-1	inhibitor, colorimetric		20 µM		remaining MMP-1 activity	116 ± 29%
NCCCNCCCCNCCCN	MFS-type transporter SLC18B1 (SLC18B1, Homo sapiens, UniProt Q6NT16, E83A)	binder				Kd	145 µM
N=C(N)NCCC[C@@H](NC(=O)CCOCCOCCNC(=O)[C@H](CCCCNC(=O)CC[C@H](NC(=O)c1ccc(NCc2cnc3nc(N)[nH]c(=O)c3n2)cc1)C(=O)O)NC(=O)CO/N=C/[C@H](F)[C@@H](O)[C@H](O)[C@H](O)CO)C(=O)NCC(=O)N[C@H](CC(=O)O)C(N)=O [fluorine-18 labelled]		radio-HPLC	human plasma	2.5 h, 37 °C		free fluorine-18 released	≤ 20%
COc1cnc2cccc(N3CCc4c(cc(Cn5ccnc5C)cc4-c4cn(C)nc4C(F)(F)F)C3=O)c2c1	RERF-LC-MS	cell growth, inhibitor		120 h		EC50	> 30 µM
CC[S+]([O-])c1nc(-c2ccccc2)cc(C(F)(F)F)n1 (stereo not shown)	transportin-1/2	FUS nuclear import, high content imaging	HeLa Kyoto reporter	1.58 µM, 2 h		cells with nuclear reporter	93.2% and 95.7%
N#Cc1ccc2c(c1)[C@H]1CCCN(C(=O)c3ccc4[nH]cnc4c3)[C@H]1C2			human, plasma	360 mg, day 15		fasting plasma glucose	161 mg/dL
Cn1cc(-c2ccc(-c3cncc(Cl)c3N3CCC4(CCNC4=O)CC3)cc2)cn1	COLO 205	gene expression, microarray, refers to: EIF4EBP1 mRNA		concentration not given, 2 h	baseline: untreated cells	log2 fold change	2.03
O=C1C[C@@H](C(=O)O)NC(=O)N1		binding, MIDAS equilibrium dialysis LC-MS	A2AR-BRIL thermostabilized	concentration not given	baseline: no-protein control	log2 fold change	-0.827
CCn1cc(-c2cc(Cn3ccoc3=N)cc3c2CCN([C@@H](C)c2cc(OC)ccn2)C3=O)c(C(F)(F)F)n1	SU-DHL-6	cell growth, inhibitor		120 h		EC50	0.593 µM
COc1cc2oc(=O)cc(C)c2cc1CCC(=O)O	USP16 ZnF-UBD domain					Kd	535 µM
N[C@@H](CCCCN[C@@H](CCC(=O)O)C(=O)O)C(=O)O		binding, MIDAS equilibrium dialysis LC-MS	A2AR-BRIL thermostabilized	concentration not given	baseline: no-protein control	log2 fold change	-0.254
CC(C)C[C@H](NC(=O)C[C@H](O)[C@H](CC(C)C)NC(=O)[C@H](Cc1c[nH]cn1)NC(=O)CNC(=O)[C@@H](NC(=O)[C@H](C)NC(=O)[C@H](Cc1c[nH]c2ccccc12)NC(=O)[C@H](CCC(N)=O)NC(=O)[C@@H](Cc1ccccc1)NC(=O)COCCOCCNC(=O)CCC(C(=O)O)N1CCN(CC(=O)O)CCN(CC(=O)O)CC1)C(C)C)C(N)=O (stereo partly shown) [lutetium-177 labelled]			female BALB/c nu/nu mice, tumor	intravenous, 50 pmol, 1 h		tissue uptake	6.9 ± 0.9 %ID/g
OC(CCN1CCCCC1)(c1ccccc1)C1CC2C=CC1C2 (stereo not shown)		resting-state EEG	healthy elderly humans	oral, 4 mg, eyes closed, LS mean		gamma power, EEG, Pz-O1	0.8 µV²
[Ca+2]	human TRPA1	ion current, two-electrode voltage clamp	Xenopus oocytes	-80 mV, together with: AITC		desensitization time constant	5.54 s and 1.6 s and 16 s and 7.55 s and 27.2 s
CC(C)C[C@H](N)C(=O)O		binding, MIDAS equilibrium dialysis LC-MS	A2AR-BRIL thermostabilized	concentration not given	baseline: no-protein control	log2 fold change	-0.14
Cc1c(-c2ccc(N3CCc4cccc(C(=O)Nc5nc6ccccc6s5)c4C3)nc2C(=O)O)cnn1CC12CC3(C)CC(C)(C1)CC(OCCNCC[C@H](O)CO)(C3)C2			anaesthetised male beagle dogs	intravenous infusion, 0.3 mg/kg/min, 45 min	baseline: vehicle	cardiac output change	-31%

Some of these lines once more:
Structure (SMILES)	target or system	test	system	setting	how to read	measurement	value
Cn1cnc(C[C@H](N)C(=O)O)c1		binding, MIDAS equilibrium dialysis LC-MS	A2AR-BRIL thermostabilized	concentration not given	baseline: no-protein control	log2 fold change	-0.103
O=C(/C=C/C=C/C=C/C1CCCCC1)NC1=C[C@@](O)(/C=C/C=C/C=C/C(=O)NC2=C(O)CCC2=O)[C@@H]2O[C@@H]2C1=O	Panc 04.03	CellTiter-Glo		78 h		GI50	24.4 µM
NCCOP(=O)(O)OP(=O)(O)OC[C@H]1O[C@@H](n2ccc(N)nc2=O)[C@H](O)[C@@H]1O		binding, MIDAS equilibrium dialysis LC-MS	A2AR-BRIL thermostabilized	concentration not given	baseline: no-protein control	log2 fold change	-0.245
COc1cccc(CNC(=O)C#Cc2cn(Cc3ccc(C(=O)O)cc3)c(=O)[nH]c2=O)c1	MMP-1	inhibitor, colorimetric		20 µM		remaining MMP-1 activity	116 ± 29%
